Experimental data collected from several papers.
± gives the spread as reported.
POLB: DNA polymerase beta (POLB, Homo sapiens, UniProt P06746)
SCTR: Secretin receptor (SCTR, Homo sapiens, UniProt P47872)
Enoyl-[acyl-carrier-protein] reductase [NADPH] FabI: Enoyl-[acyl-carrier-protein] reductase [NADPH] FabI (Staphylococcus aureus, UniProt Q6GI75)
T1: ssRNA, CCUG repeat; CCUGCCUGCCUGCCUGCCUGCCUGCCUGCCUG

SMILES | target | test | system | conditions | scale | endpoint | result
CCCCCCCC/C=C\CCCCCCCC(=O)OC[C@@H]1OCCC[C@@H]1OP(=O)(O)S (stereo partly shown) | LPAR2 (Homo sapiens, UniProt Q9HBW0) | agonist, TGFα shedding | – | – | – | Emax | 29%
Nc1nc2c(ncn2[C@H]2C[C@H](O)[C@@H](COP(=O)(O)OP(=O)(O)[C@@H](F)P(=O)(O)O)O2)c(=O)[nH]1 | POLB | substrate, quench-flow kinetics | – | pH 8.0, 37 °C, incorporation opposite C in gapped DNA | – | kpol | 9.2 ± 2.3 s⁻¹
O=C(c1cccc(-c2cc(NCCO)ncn2)c1)N1CCCC1c1ccccc1 (stereo not shown) | DNA dC->dU-editing enzyme APOBEC-3A (Homo sapiens, UniProt P31941) | binding, 1H CPMG NMR | – | – | – | signal attenuation | 23.9 ± 11.3%
N=C(NCCCCNc1nc(N)nc(N)n1)c1ccc(C(=N)NCCCCNc2nc(N)nc(N)n2)cc1 | T1, ssRNA, CCUG repeat | ITC | – | pH 7.0, 25 °C, NaCl 300 mM, lower limit, per strand | – | Kd | > 200000 nM
Cc1cc(=O)oc2c(F)c(OP(=O)(O)O)c(F)cc12 | PTPN11 (Homo sapiens, UniProt Q06124) | substrate | – | fully activated enzyme | – | kcat | 83.1 ± 2.72 s⁻¹
NC(=O)C1CCCCNC(=O)C(CCCNC(=O)c2cnccn2)NC(=O)C(Cc2ccco2)NC(=O)C(CC2CC2)NC(=O)C=CC(=O)N1 (stereo not shown) | KDR (Homo sapiens, UniProt P35968) | DNA-templated library selection | – | one selection round | – | enrichment factor | 1.4
C[C@@H](N)[C@H]1CC[C@H](C(=O)Nc2ccncc2)CC1 | PKN2 (Homo sapiens, UniProt Q16513) | enzyme activity, inhibitor, radiometric | – | 10 µM | – | activity vs control | < 10%
C=C1[C@H](O)CC(=C/C=C2\CCC[C@]3(C)[C@@H]([C@H](C)CCCCO)CC[C@@H]23)C[C@H]1O | Vitamin D3 receptor (Rattus norvegicus, UniProt P13053) | binding, radioligand competition | – | – | relative to: compound over 1α,25-dihydroxyvitamin D3 | Ki ratio | 2
COc1ccc(-c2cc(C(F)(F)F)nc(SCC(=O)N(C)c3ccccc3)n2)cc1 | SCTR | affinity cooperativity, allosteric modulator | cells overexpressing SCTR | together with: secretin(3-27) | – | cooperativity factor alpha | 6
NCCCCC(NC(=O)OCc1ccccc1)C(=O)C=O (stereo not shown) | Serine protease 1 (PRSS1, Bos taurus, UniProt P00760) | binding | – | concentration not given, pH 7.2, together with: Nα-benzoyl-L-arginine p-nitroanilide | – | bound inhibitor fraction | ~94%
O=P(O)(O)O[C@@H]1[C@@H](O)[C@H](O)[C@H](O)[C@H](O)[C@H]1OP(=O)(O)O | Itpr1 (Rattus norvegicus, UniProt P29994) | Ca2+ release | DT40-IP3R1, permeabilized | – | – | Hill coefficient | 1.4 ± 0.2
C[n+]1cn(C2OC(COP(=O)([O-])OP(=O)(O)OP(=O)(O)OCC3OC(n4cnc5c(=O)[nH]c(N)nc54)C(O)C3O)C(O)C2O)c2nc(NCc3cc(-c4ccccc4)no3)[nH]c(=O)c21 (stereo not shown) | Eif4e (Mus musculus, UniProt P63073) | differential scanning fluorimetry | – | 100 µM | – | melting temperature | 53 °C
CCC1(CC)C(=O)N(c2cccc(CN3CCN(c4cc(C)nc5ccc(Br)cc45)CC3)c2)C1=O | Dipeptidyl peptidase 8 (Homo sapiens, UniProt Q6V1X1) | probe labelling, inhibitor, competitive ABPP mass spectrometry | U-937 cell lysate | 10 µM, together with: FP-biotin 10 µM | relative to: DMSO over compound | SILAC ratio | > 3
Oc1c(C(Nc2nccs2)c2cccc(OCc3ccccc3)c2)ccc2cccnc12 (stereo not shown) | Genome polyprotein, NS2B-NS3 protease (Dengue virus type 2, UniProt P14340) | enzyme activity, inhibitor | – | no CHAPS, together with: Bz-Nle-Lys-Arg-Arg-AMC substrate | – | Hill slope | 1.21 ± 0.06
CN1CCN(CC(=O)N2N=C3/C(=C/c4ccccc4)CCCC3C2c2ccccc2)CC1 (mixture of isomers) | ALOX15 (Homo sapiens, UniProt P16050) | enzyme activity, activator | – | together with: linoleic acid 10 µM | – | maximal activation | 98%
CNc1ccccc1C(=O)O[C@H]1C[C@H](n2cnc3c(N)ncnc32)O[C@@H]1COP(=O)(O)OP(=O)(O)O | Unconventional myosin-Va (Gallus gallus, UniProt Q02440, D297C/G292C/I296C/S293C/V295G) | stopped-flow FRET | – | 10 °C, together with: MgCl2 2 mM | – | association rate constant | 2.65e+06 ± 50000 M⁻¹ s⁻¹
COc1ccccc1-c1cc(C(F)(F)F)nc(S(=O)(=O)CCCC(=O)Nc2ccc(F)cc2F)n1 | SCTR | cAMP accumulation, positive allosteric modulator | CHO-K1 overexpressing SCTR | together with: EC10-EC20 secretin peptide mix | relative to: EC95 peptide mix | Emax | 40 ± 11%
CC(=O)[C@@]1(O)CC[C@H]2[C@@H]3CCC4=CC(=O)CC[C@]4(C)[C@H]3CC[C@@]21C | ADGRG6 (Homo sapiens, UniProt Q86SQ4) | inhibitor | – | concentration not given, together with: forskolin | – | cAMP level | inhibited
Nc1nc2c(ncn2[C@H]2C[C@H](O)[C@@H](COP(=O)(O)OP(=O)(O)CP(=O)(O)O)O2)c(=O)[nH]1 | POLB | nucleotide incorporation, substrate, single turnover kinetics | – | dG misincorporation opposite A | – | kpol/Kd | 2.6 ± 0.45 M⁻¹ s⁻¹
CCn1c(-c2cc(NC(=O)c3cnccn3)n[nH]2)cc2ccc(OC)cc21 | CSNK2A2 (Homo sapiens, UniProt P19784) | ADP-Glo | – | – | relative to: IC50 CK2α' over CK2α | selectivity ratio | 5.8 fold

SMILES | target | test | system | conditions | scale | endpoint | result
CN1CCN(c2ccc(CNc3ccnc4cc(Cl)ccc34)cc2)CC1 | Nuclear receptor subfamily 4 group A member 2, ligand binding domain (Homo sapiens, UniProt P43354) | reporter gene, agonist, Gal4-Nurr1 hybrid reporter | HEK-293T | 30 µM, crude library product | relative to: vehicle (0.1% DMSO) | activation | ≤ 1.5 fold
[3H]C([3H])([3H])c1cnccc1CN1C[C@@H](c2cc(F)c(F)c(F)c2)CC1=O | SV2A (Homo sapiens, UniProt Q7L0J3) | radioligand binding | human control, frontal cortex | – | relative to: P2 fraction over homogenate | specific binding ratio | ~73 fold
Nc1nc2c(ncn2C2CC(O)C(COP(=O)(O)OP(=O)(O)C(Cl)P(=O)(O)O)O2)c(=O)[nH]1 (mixture of isomers) | POLB | nucleotide incorporation, substrate, single turnover kinetics | – | dG misincorporation opposite A | – | kpol/Kd | 7 ± 4 M⁻¹ s⁻¹
Cc1cc(O)c(=O)c(O)cc1C(=O)N1CCN(C(=O)c2cccc3ccccc23)CC1 | Ribonuclease H1 (Homo sapiens, UniProt O60930) | enzyme activity, inhibitor, FRET heteroduplex cleavage | – | mixed inhibition model | – | Ki (enzyme-substrate complex) | 2600 ± 500 nM
CCCCCCc1ccc(Oc2ccccc2N)c(O)c1 | Enoyl-[acyl-carrier-protein] reductase [NADPH] FabI | enzyme activity, inhibitor, progress curve kinetics, item: NADPH | – | – | – | Ki | 0.12 nM
COc1ccc(-c2cc(C(F)(F)F)nc(NCc3ccc(Cl)cc3)n2)cc1OC | SCTR | affinity cooperativity, allosteric modulator | cells overexpressing SCTR | together with: secretin(3-27) | – | cooperativity factor alpha | 5 to 7
CCCC(=O)OC(C)CC(=O)OC(C)CC(=O)SCCNC(=O)CCNC(=O)[C@H](O)C(C)(C)COP(=O)(O)OP(=O)(O)OC[C@H]1O[C@@H](n2cnc3c(N)ncnc32)[C@H](O)[C@@H]1OP(=O)(O)O (stereo partly shown) | PHB synthase PhaC (Caulobacter vibrioides, UniProt A0A0H3C9D4) | covalent acylation, substrate | – | 500 µM, 10 s, pH 7.5, 30 °C | – | acylation stoichiometry | 0.9 ± 0.07 mol CoA/mol enzyme
Cc1ccc(NC(=O)CNS(=O)(=O)c2nc(-c3ccc(OC(F)(F)F)cc3)cc(C(F)(F)F)n2)cc1 | WRN (Homo sapiens, UniProt Q14191) | enzyme activity, inhibitor | – | – | – | kinact | 0.00045 s⁻¹
COc1ccc(-c2cc(C(F)(F)F)nc(SCC(=O)N(C)c3ccccc3)n2)cc1OC | SCTR | cAMP, agonist | – | – | – | Emax | 16%
O=C(Nc1ccccc1)Nc1ccc2c(c1)OC(F)(F)O2 | Signal peptidase IB (spsB, Staphylococcus aureus, UniProt Q5HHB9) | enzyme activity, FRET peptide cleavage | Staphylococcus aureus membranes | 50 µM | relative to: DMSO | remaining activity | 1.15 ± 0.01 fold
CCOC(=O)c1cnc(CNCCc2c[nH]c3cccc(C)c23)s1 | HTR2A (Homo sapiens, UniProt P28223) | β-arrestin recruitment, agonist | – | – | – | Emax | 64.8%
Cc1cn([C@H]2C[C@H](O)[C@@H](COP(=O)(O)OP(=O)(O)C(Br)(Br)P(=O)(O)O)O2)c(=O)[nH]c1=O | POLB | substrate, single turnover kinetics | – | – | – | kpol/Kd | 4000 ± 1000 M⁻¹ s⁻¹
C[C@]12CC[C@@H]3c4cc(Br)c(O)cc4CC[C@H]3[C@@H]1CCC2=O | AKR1C3 (Homo sapiens, UniProt P42330) | enzyme activity, inhibitor, absorbance | – | 100 µM, pH 9 | – | inhibition | 40.2%
CC(=O)N[C@@H](Cc1ccc(O)cc1)C(=O)N[C@H](C(=O)N[C@@H](C)C(=O)N[C@@H](CC(=O)O)C(=O)Nc1ccc2c(C)cc(=O)oc2c1)C(C)C | Caspase-4 (CASP4, Homo sapiens, UniProt P49662) | substrate cleavage, substrate, fluorogenic AMC release | – | enzyme 0.25 activity units/µL | – | Vmax | 1670 ± 190 RFU/min
Cc1cn(C2CC(O)C(COP(=O)(O)OP(=O)(O)C(Cl)P(=O)(O)O)O2)c(=O)[nH]c1=O (mixture of isomers) | POLB | substrate, single turnover kinetics | – | – | – | kpol/Kd | 190000 ± 50000 M⁻¹ s⁻¹
COc1ccc(CNc2nc(-c3ccc(OC)c(OC)c3)cc(C(F)(F)F)n2)cc1 | SCTR | cAMP, agonist | – | – | – | Emax | 27%
Nc1nc2c(ncn2[C@H]2C[C@H](O)[C@@H](COP(=O)(O)OP(=O)(O)[C@H](Cl)P(=O)(O)O)O2)c(=O)[nH]1 | DNA polymerase beta (POLB, Homo sapiens, UniProt P06746, R183A) | substrate, pre-steady-state kinetics | – | incorporation opposite dC in gapped DNA | – | kpol | 1.5 ± 0.1 s⁻¹
[11CH3]Nc1ccc(-c2nc3ccc(O)cc3o2)cn1 | APP (Homo sapiens, UniProt P05067) | binding, PET, reference Logan | control subjects, hippocampus | – | relative to: cerebellum | distribution volume ratio | 1.04 ± 0.04
Nc1nc2c(ncn2C2CC(O)C(COP(=O)(O)OP(=O)(O)C(F)P(=O)(O)O)O2)c(=O)[nH]1 (mixture of isomers) | POLB | nucleotide incorporation rate, substrate, single-turnover kinetics | single-nucleotide gapped DNA | 37 °C, wild type, misincorporation, together with: dGTP opposite template A | – | kpol | 0.006 ± 0.0009 s⁻¹
CCCCCCc1ccc(Oc2ccccc2C#N)c(O)c1 | Enoyl-[acyl-carrier-protein] reductase [NADPH] FabI | binding | – | – | – | residence time | 107 min

Repeated from above:
SMILES | target | test | system | conditions | scale | endpoint | result
Nc1nc2c(ncn2C2CC(O)C(COP(=O)(O)OP(=O)(O)C(Cl)P(=O)(O)O)O2)c(=O)[nH]1 (mixture of isomers) | POLB | nucleotide incorporation, substrate, single turnover kinetics | – | dG misincorporation opposite A | – | kpol/Kd | 7 ± 4 M⁻¹ s⁻¹
Cc1cc(O)c(=O)c(O)cc1C(=O)N1CCN(C(=O)c2cccc3ccccc23)CC1 | Ribonuclease H1 (Homo sapiens, UniProt O60930) | enzyme activity, inhibitor, FRET heteroduplex cleavage | – | mixed inhibition model | – | Ki (enzyme-substrate complex) | 2600 ± 500 nM
